Literature values as cited in several papers.
Lines come from different studies, so protocols differ. ± marks the error that the study gave.
F2: Prothrombin (F2, Bos taurus, UniProt P00735)
Sequence of UniProt P04191 (whole entry, looked up): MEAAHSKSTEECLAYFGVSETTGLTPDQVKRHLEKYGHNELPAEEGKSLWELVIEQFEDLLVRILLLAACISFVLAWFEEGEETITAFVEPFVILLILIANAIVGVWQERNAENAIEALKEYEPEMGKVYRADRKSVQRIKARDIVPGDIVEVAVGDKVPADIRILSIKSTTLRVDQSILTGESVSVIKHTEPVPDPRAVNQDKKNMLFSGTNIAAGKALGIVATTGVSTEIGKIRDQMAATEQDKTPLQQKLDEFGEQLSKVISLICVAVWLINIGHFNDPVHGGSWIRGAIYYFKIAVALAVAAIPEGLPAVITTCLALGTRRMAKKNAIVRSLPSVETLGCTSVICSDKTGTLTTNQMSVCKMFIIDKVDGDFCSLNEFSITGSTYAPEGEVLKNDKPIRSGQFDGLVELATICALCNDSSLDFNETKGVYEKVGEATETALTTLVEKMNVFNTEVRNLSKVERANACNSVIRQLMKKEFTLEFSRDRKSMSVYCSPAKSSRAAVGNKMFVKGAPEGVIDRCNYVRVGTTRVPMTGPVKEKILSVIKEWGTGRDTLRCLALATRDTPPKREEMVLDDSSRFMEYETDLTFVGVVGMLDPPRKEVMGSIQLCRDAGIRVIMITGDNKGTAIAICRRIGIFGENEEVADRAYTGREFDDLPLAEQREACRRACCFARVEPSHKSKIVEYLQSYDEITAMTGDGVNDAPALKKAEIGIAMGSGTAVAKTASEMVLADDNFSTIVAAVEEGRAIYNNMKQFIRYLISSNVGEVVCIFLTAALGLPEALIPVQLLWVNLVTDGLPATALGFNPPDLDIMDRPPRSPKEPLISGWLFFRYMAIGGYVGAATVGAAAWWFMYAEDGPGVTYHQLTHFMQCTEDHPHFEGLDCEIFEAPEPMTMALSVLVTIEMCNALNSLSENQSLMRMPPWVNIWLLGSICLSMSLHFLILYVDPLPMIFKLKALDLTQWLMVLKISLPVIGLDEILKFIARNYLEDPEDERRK
Sequence of UniProt P06241 (whole entry, unmodified, looked up): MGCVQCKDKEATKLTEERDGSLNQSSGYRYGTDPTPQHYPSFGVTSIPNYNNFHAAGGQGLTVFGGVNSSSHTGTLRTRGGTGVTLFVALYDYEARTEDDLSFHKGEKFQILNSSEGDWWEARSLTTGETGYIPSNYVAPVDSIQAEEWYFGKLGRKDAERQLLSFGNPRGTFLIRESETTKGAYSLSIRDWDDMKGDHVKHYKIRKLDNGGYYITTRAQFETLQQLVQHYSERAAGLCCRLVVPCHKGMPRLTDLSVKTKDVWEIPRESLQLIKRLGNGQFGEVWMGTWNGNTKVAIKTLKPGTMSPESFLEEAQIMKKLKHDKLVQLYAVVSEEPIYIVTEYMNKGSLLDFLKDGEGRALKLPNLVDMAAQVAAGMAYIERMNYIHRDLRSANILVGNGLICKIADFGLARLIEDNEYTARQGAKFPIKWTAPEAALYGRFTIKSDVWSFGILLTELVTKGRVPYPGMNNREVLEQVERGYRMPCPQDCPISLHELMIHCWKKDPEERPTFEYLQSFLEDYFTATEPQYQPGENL
Sequence of UniProt P25105 (whole entry, looked up): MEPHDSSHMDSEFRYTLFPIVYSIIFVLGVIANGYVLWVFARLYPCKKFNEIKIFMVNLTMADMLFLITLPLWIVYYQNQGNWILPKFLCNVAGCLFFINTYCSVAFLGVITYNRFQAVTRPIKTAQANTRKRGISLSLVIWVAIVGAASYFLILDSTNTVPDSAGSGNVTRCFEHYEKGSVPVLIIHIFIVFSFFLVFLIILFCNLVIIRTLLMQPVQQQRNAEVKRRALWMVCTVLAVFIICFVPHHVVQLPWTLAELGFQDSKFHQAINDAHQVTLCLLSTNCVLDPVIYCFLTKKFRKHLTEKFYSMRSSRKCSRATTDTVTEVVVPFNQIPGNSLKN

Substance	target or system	assay	system	setting	how to read	quantity	result
TVELQGVVPRGVNL	F2	substrate, HPLC	peptide	–	–	Km	508 ± 44 µM
enfortumab vedotin	–	–	rat	–	–	clearance	1.8 to 3 mL/h/kg
Ac-APPIPPPRRKR-NH2 (N-acetyl, C-amide)	Tyrosine-protein kinase Fyn, SH3 domain (FYN, Homo sapiens, UniProt P06241)	–	peptide	concentration not given	–	binding enthalpy ΔH	-9.8 kcal/mol
sarcolipin	Sarcoplasmic/endoplasmic reticulum calcium ATPase 1 (ATP2A1, Oryctolagus cuniculus, UniProt P04191)	calcium affinity	–	–	–	KCa	0.8 ± 0.02 µM
DFLAEGGGVRGPRV	F2	substrate, HPLC	peptide	–	–	Km	312 ± 42 µM
melittin	Staphylococcus aureus	–	ATCC 25923	literature value	–	MIC	≤ 1.6 µM
SGSLSTFFRLFNRSFTQA	Histidine kinase ComD (Streptococcus mutans serotype c, UniProt Q8DS94)	agonist	peptide	concentration not given, primary screen	–	activation	100%
buforin II	Salmonella typhimurium	–	SL1344	–	–	MIC	> 100 µM
pegcetacoplan	–	–	cynomolgus monkey	subcutaneous, 28 days, daily, GLP study	–	level, dose, no toxic effect	7 mg/kg/day
5′-methylthioadenosine	PRMT5	–	–	concentration not given	reference: S-adenosylmethionine	binding affinity	~10 fold
platelet-activating factor	Platelet-activating factor receptor (PTAFR, Homo sapiens, UniProt P25105)	binding	–	historical reference data	–	Hill coefficient	0.9
neurotensin	NTS1 F331A	–	–	concentration not given	reference: wild type	binding affinity decrease	10 fold

Repeated from above:
Substance	target or system	assay	system	setting	how to read	quantity	result
sarcolipin	Sarcoplasmic/endoplasmic reticulum calcium ATPase 1 (ATP2A1, Oryctolagus cuniculus, UniProt P04191)	calcium affinity	–	–	–	KCa	0.8 ± 0.02 µM
buforin II	Salmonella typhimurium	–	SL1344	–	–	MIC	> 100 µM
